Assay results gathered from unrelated publications.
Every numbered part comes from another study and shows a few of its results, in no order.

Set 1
Target: Sal-like protein 4, full length isoform B (SALL4, Homo sapiens, UniProt Q9UJQ4-2, residues 1-616)
Technique: universal PBM
Form: double-stranded DNA, one strand shown
Sample: in vitro
Tested at: not given
Setting: 8-mer, flanks averaged, mean of replicates
Direction: higher = stronger binding
Quantity: E-score
Strand = CGTGGGCA; result = -0.228
Strand = AGCCTCTA; result = -0.189
Strand = CATTCAGA; result = 0.0148
Strand = AATCTTGA; result = 0.156
Strand = GTGAATGA; result = 0.0652
Strand = ATTGCTAC; result = 0.232
Strand = AATCCCCT; result = -0.106
Strand = CTACAGGC; result = -0.172
Strand = CCCTTACG; result = -0.0958
Strand = GAGCTTCC; result = -0.201
Strand = CAAAAATC; result = 0.237
Strand = CTTTGACC; result = 0.0529
Strand = ACAGGAGA; result = -0.0648
Strand = AAGAGCTC; result = -0.313
Strand = CCCCTCGG; result = -0.335
Strand = CAGACGTC; result = -0.091
Strand = GTTGCATA; result = 0.115
Strand = GCTCCAAC; result = -0.181
Strand = CTCTATGA; result = 0.0805
Strand = AGTCATTG; result = 0.0766
Strand = AGGCCGTC; result = -0.353
Strand = ACATAGGT; result = 0.17
Strand = AAGGCTAA; result = 0.0125
Strand = CTACTTTA; result = 0.0776
Strand = CAAATCTA; result = 0.256

Set 2
Target: RNA binding protein fox-1 homolog 2, RRM domain, GST-SBP tag (RBFOX2, Homo sapiens, UniProt O43251-10, residues 100-194)
Technique: RNA Bind-n-Seq
Form: RNA
Sample: in vitro
Tested at: 365 nM
Setting: natural RNA segment, single round, ends assumed
Relative to: no-protein control
Direction: higher = stronger binding
Quantity: RBNS enrichment (R)
Constant ends, left off below: GGGAGUUCUACAGUCCGACGAUC … UGGAAUUCUCGGGUGCCAA
Construct (chain): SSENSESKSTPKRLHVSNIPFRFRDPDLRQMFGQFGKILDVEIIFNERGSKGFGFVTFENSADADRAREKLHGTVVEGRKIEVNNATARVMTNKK
Strand = GUACAAUAUCUAAAAAGAAAGUGACAUGAAGGAAGCAAUCUACAACUUCCUUCCGCUUAGCGAGCAUGCAUGUGUGUACGUGCACGUGUGUACAUGUCUGCAUGUGUGGG; result = 5.09
Strand = CACUAAUGAAAGUUGAAAAUAUGUCUUCAAAUCAGGAUGGCAAUGAUUCAGAUGAAUUCAUGUAAAAGGAGAAAAGGAGAAAAGGACCUUUGAAAGAUGUGAAUGUAGAG; result = 1.33
Strand = CAUUCCUCCACUUUCAUAAAUUUGACAAAUAAUAAGCCUCUCCCAUUAGGAUUUUCUGUUUUAUAGUAAAUAGUUGGUAUUUGGUAGUCCACAAUUAAAGUCAUUGCAUU; result = 0.716
Strand = CUAUACCGGAAUGUCCCUGCAGUGCCAGAGACGCAGUGCUGGGAAAACAACCACAGAAACAUCUCUCCUUUGUGUAUUUUUCCCUCCCCCACCUUUCACCCCACAGUGGU; result = 0.556
Strand = CAGUACCUGGGAAGUACGCCUGUGGGCUCUGGGGUCUAUCGCCUGCAUCAAGGAAAAGGUAUGAUGCCGCCGCCGCCUAUGGGCAUGAUGCCGCCGCCUCCGCCACCUCC; result = 0.267
Strand = GUCAGUCUUAAUUCCCAUGCCAAAGGACAAACAGGUGUGACAUUUGGAUAGAUGAAUACUGGGAUUGGCUCUGGAGCAUGUGUUUUGAGUUGAACCUUGCAGUCCUUUCU; result = 2.46
Strand = CAUGCUUCCAUAUAUAUUACCCUGAACUUUCUAUCACCACAGAUAAAGAUUUUGUUUUGCCCUGCAAAUAAAAAGACAAUUCCUUAUUGUCUGAAUGUAAUACAGUCUUC; result = 0.818
Strand = GGAUCUGAAAAGACAAGGACUGCUCUAGUGUUCAGGGAUGUAGCUCAGCUUUUGGGCUAGCCCAGGCUUCCCUAAGAUCUGCUUUUUCUAUUUCUCCCAACCAAAUCCUC; result = 0.289
Strand = AAAUAUGACUGGCAACCUGAAUUUGAGUUGGGAUUCUUUGUGUAUUUUUCCCCCUUGAGGUUAUUGUUUCUUCCUAAUUUAUAUUUCAGAUACAUAGUGUAGAACAGGAA; result = 1.06
Strand = UGCUGCAUUGGAGAUCACAUCCUUUCCCUGUGUUGCCCCCAUUUCUCUGCUGCUUCUCUGGCUUGUUUCCUACAGCGGGGGCCUGUGGGAUUGAGUCUUGAGGAAUUCUC; result = 2.4
Strand = UUUAAAACUUGAGCCUGGACCUUGGGGUCCUGUAGUGUGUGGAUUCCAAGGCCUUGCCCUCAGAGCAGGGGCCUGGGCACUCUCACUCACGUGGCCUGUCUCCAGAUCCC; result = 0.292
Strand = UAAAACAGAACUUUCCCAUUAUCUGUAGGGAACAGAGUAACGCAUAGUCUUUAAAAAUCAGUCCCAGAAGAGAGCAUUGCUUUACUGAGGGGCCUUCUCAGUGCAGUGUC; result = 0.882

Set 3
Target: RING finger protein unkempt homolog, zinc fingers 1-6, GST-SBP tag (UNK, Homo sapiens, UniProt Q9C0B0, residues 30-357)
Technique: RNA Bind-n-Seq
Form: RNA
Sample: in vitro
Tested at: not given
Setting: RNA with constant flanks, human and mouse sites, ends assumed
Relative to: input RNA pool
Direction: higher = stronger binding
Quantity: bound/input enrichment
Constant ends, left off below: GGGAGUUCUACAGUCCGACGAUC … CAACAGAGGAUUGAGCAUCA
Residues (chain): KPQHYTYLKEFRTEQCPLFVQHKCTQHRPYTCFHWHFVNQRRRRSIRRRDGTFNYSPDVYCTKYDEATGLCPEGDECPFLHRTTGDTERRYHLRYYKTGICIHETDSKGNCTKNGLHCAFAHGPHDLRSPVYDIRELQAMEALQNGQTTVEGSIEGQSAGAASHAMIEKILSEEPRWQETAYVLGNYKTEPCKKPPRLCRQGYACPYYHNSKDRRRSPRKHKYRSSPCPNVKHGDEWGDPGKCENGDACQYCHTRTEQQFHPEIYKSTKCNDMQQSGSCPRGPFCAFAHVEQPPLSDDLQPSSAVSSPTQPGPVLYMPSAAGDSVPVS
Strand = AAAACCUGGUAUGGAGUUCCAGGCUACGCUGCUGAGCAGCUAGAAAACGUGAUGAAGAAGCUCGCUCCUGAGCUCUUUGUGUCCCAGCCGGACCUGCUCCACCAGCUGGUGACCAUCAUG; result = 0.132 ratio
Strand = CGAAGCUCGCGGGCGCUGGCGGGACAGGCGCGUGAGGCCACAACACAUGCGUGUAUCUUGCUUGGGCUAUCUUCCCUGCUCUGCCACGCCGGGUCUGGAGAAGGGGUUUCAGCCCCAGGA; result = 0.0934 ratio
Strand = AGAUGUCUCUUUGGGCCUGUCUGCCUGCUUUCCUUCCUUCCUUUUCUUUCCUUUUUUUUUUUGGUCAGUUGCCAUCUCAAUCUAAUCAUAGAUGUAAGAAUGCGGAAGCCAGAGUAACUC; result = 0.513 ratio
Strand = AAAAAAAUGACUCAAGCCGUGUAUUUUUUAUAUUUUGAUAUACUCACUUGUGAAUUAAAGAAUAGGACUAUCACUGAUAAAGUAUCAAAAUAGUAAGAGUGGCAACAUUUUGAAAAUAUU; result = 0.713 ratio
Strand = AAGUCUAAUAAAUGGAAGGAAUGUGGCAAAAUGAUUCAUGAAUCCUCCAAAAGUACACCUUAUCAAACCAACAACAGAGAUGCCUCCAUUGAAUCAUCAAACAGACACAAAACUGAGAAU; result = 0.142 ratio
Strand = CAAACCUGCAAUCCUGGAGAAGUAGGGCGAACAGAUAAGGAAAGAAAAAAAUUGAAGUAGGACUUUGGGGCCAAGGGGAGUUCUUUCAAUGCACUCCCCCUUUCUCCCCACCGCCACAGC; result = 0.511 ratio
Strand = GCAAAAAGCUGGAAGAGGAGCGGCACAACCUCAUCACAGAGAUGGUUGCACUCAAUCCGGAUUUCAAGCCACCUGCAGAUUACAAACCUCCAGCAACACGUGUGAGUGAUAAAGUCAUGA; result = 0.0903 ratio
Strand = UUUUGGAAACAGUUCAGGCUUUGGGGUGAGCCUGUUAAUCUGCGUGAACAACACGAUGCUUUAGAAUUUUUUAAUUCAUUGGUGGAUAGUUUAGAUGAAGCUUUAAAAGCUUUAGGACAU; result = 2.69 ratio
Strand = UAUGGUUAUGAGAAGCCAGAGGAACGCUGGUUACCUAUCCAUACUGUGGAAACCAUCAUGAUUAGUGUCAUUUCUAUGCUGGCAGAUCCUAAUGGAGACUCACCUGCAAAUGUAGAUGCU; result = 0.6 ratio
Strand = UUGUUUUGCUCAUUUGAAGUCAUUUGCCAUUUUUUUGGCCUUUUGUGGAACUCUGCUGCUUUUAGAAGAAUUAUGAAAAAUAAUUGCCAUCAACAAUAUUUUGAGGCAGUAAAACCCCUU; result = 1.48 ratio
Strand = UGUGCAUAUGAUGCUUGAGAUGGUUUUUGCAAAAGCAGAAAUCGCUGCAAGGUAAUCACAAUAGAUAAAAGUGGUAUUUUAAACCUUUGAAAUAAAUGGAUGUAACUGUACCUUGGUACA; result = 0.576 ratio

Set 4
Target: Fragile X messenger ribonucleoprotein 1, C-terminal low-complexity region (Fmr1, Mus musculus, UniProt P35922)
Technique: RNA Bind-n-Seq
Form: RNA
Sample: in vitro
Tested at: 200 nM
Setting: whole 134-nt RNA, ends assumed
With: 150 mM KCl
Relative to: input library
Direction: higher = stronger binding
Quantity: log2 enrichment
Constant ends, left off below: GGGAGUUCUACAGUCCGACGAUC … UGGAAUUCUCGGGUGUCAAGG
Strand = CUCAAGUCCUGUGCUACACAUCGUAUGUACCGAAUCGGAAAGGUGGUUUUUGGAAAGUAUUAUGUUACGCCGUUCGGAUCUGCACUUCCA; result = -0.332
Strand = UGGGAGGUGGAUUUUGUUUAUUUUUUUAGCUCAUUUCCAGGGGUGGGAAUUUUUUUUUAAUAUGUGUCAUGAAAAAAGUUGUUUUUGAAA; result = 0.397
Strand = UGGGAGGUGGAUUUUGUUUAUUUUUUUAGCUCAUUUCCAGGGGUGGGACUUUUUUUUUAAUAUGUGUCAUGAAUAAAGUUGUUUUUGAAA; result = 0.326
Strand = UCAAGUCCUGUGCUACACAUCGUAUGUACCGAAUCGGGGAAGGGAAGGGGAAGGGAAAGUAUUAUGUUACGCCGUUCGGAUCUGCACUUC; result = 0.745
Strand = GUCCUGUGCUACACAUCGUAUGUACCGAAUCAAACCCAAAUUUUUAAAUUUUUUUAAAAAAGUAUUAUGUUACGCCGUUCGGAUCUGCAC; result = -0.0399
Strand = UUUCCAGCAGUACCAGCUCCAGCCAGGAUCACCCUCUCUACUCUGGGCACCCAUCCCUUCCACUAAGUGGUGCUAUUGCUGCUUUUGCCU; result = 0.202
Strand = CAAGUCCUGUGCUACACAUCGUAUGUACCGAAUCGGAAAAAGGAAAGGUUUUUGGAAAGUAUUAUGUUACGCCGUUCGGAUCUGCACUUC; result = -0.954
Strand = AAGUCCUGUGCUACACAUCGUAUGUACCGAAUCGGAAAAGGGAAAAGGGGAAAAGGGAAAGUAUUAUGUUACGCCGUUCGGAUCUGCACU; result = -0.224
Strand = AAGUCCUGUGCUACACAUCGUAUGUACCGAAUCGGAAAGGUUUUUUUGGUUUUUGGAAAGUAUUAUGUUACGCCGUUCGGAUCUGCACUU; result = -1.24
Strand = CUCAAGUCCUGUGCUACACAUCGUAUGUACCGAAUCGGAGGUUUUUUUGGAGGAAAGUAUUAUGUUACGCCGUUCGGAUCUGCACUUCCA; result = -0.178
Strand = ACCAUGCAGGUGGGCAUCUGUGGGAAGUGGGGCAAGGGGGGGAUAGGGAGGGGGGUAACACUUUGGGAACAGGUGGUCCCAGGUCGUUUC; result = 1.12
Strand = AAGUCCUGUGCUACACAUCGUAUGUACCGAAUCGGGGCCCGGGGCCCGGGCCCGGGGAAAGUAUUAUGUUACGCCGUUCGGAUCUGCACU; result = -1.13
Strand = CCUCAAGUCCUGUGCUACACAUCGUAUGUACCGAAUCGGGGUGGGGUGGGUGGAAAGUAUUAUGUUACGCCGUUCGGAUCUGCACUUCCA; result = 1.3
Strand = UCUCAGCAGGCGCAUCUACACUAGUGACCUGAGGAGAGAAACCCUAACCCCACAAUGGCUGCAUCUUCUCUGAAGACGAGACUGAUGCUC; result = -0.251

Some of these lines once more (set 2):
Strand = CACUAAUGAAAGUUGAAAAUAUGUCUUCAAAUCAGGAUGGCAAUGAUUCAGAUGAAUUCAUGUAAAAGGAGAAAAGGAGAAAAGGACCUUUGAAAGAUGUGAAUGUAGAG; result = 1.33
Strand = CAGUACCUGGGAAGUACGCCUGUGGGCUCUGGGGUCUAUCGCCUGCAUCAAGGAAAAGGUAUGAUGCCGCCGCCGCCUAUGGGCAUGAUGCCGCCGCCUCCGCCACCUCC; result = 0.267
Strand = GUACAAUAUCUAAAAAGAAAGUGACAUGAAGGAAGCAAUCUACAACUUCCUUCCGCUUAGCGAGCAUGCAUGUGUGUACGUGCACGUGUGUACAUGUCUGCAUGUGUGGG; result = 5.09
Strand = CUAUACCGGAAUGUCCCUGCAGUGCCAGAGACGCAGUGCUGGGAAAACAACCACAGAAACAUCUCUCCUUUGUGUAUUUUUCCCUCCCCCACCUUUCACCCCACAGUGGU; result = 0.556
Strand = UAAAACAGAACUUUCCCAUUAUCUGUAGGGAACAGAGUAACGCAUAGUCUUUAAAAAUCAGUCCCAGAAGAGAGCAUUGCUUUACUGAGGGGCCUUCUCAGUGCAGUGUC; result = 0.882
